Experimental data collected from several papers.
Every numbered part comes from another study and shows a few of its results, in no order.
Sequence of UniProt Q9UKV3 (50-130, looked up): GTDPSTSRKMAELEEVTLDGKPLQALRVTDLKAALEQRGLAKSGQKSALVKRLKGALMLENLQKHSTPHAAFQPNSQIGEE
Sequence of UniProt P07333 (whole entry, looked up): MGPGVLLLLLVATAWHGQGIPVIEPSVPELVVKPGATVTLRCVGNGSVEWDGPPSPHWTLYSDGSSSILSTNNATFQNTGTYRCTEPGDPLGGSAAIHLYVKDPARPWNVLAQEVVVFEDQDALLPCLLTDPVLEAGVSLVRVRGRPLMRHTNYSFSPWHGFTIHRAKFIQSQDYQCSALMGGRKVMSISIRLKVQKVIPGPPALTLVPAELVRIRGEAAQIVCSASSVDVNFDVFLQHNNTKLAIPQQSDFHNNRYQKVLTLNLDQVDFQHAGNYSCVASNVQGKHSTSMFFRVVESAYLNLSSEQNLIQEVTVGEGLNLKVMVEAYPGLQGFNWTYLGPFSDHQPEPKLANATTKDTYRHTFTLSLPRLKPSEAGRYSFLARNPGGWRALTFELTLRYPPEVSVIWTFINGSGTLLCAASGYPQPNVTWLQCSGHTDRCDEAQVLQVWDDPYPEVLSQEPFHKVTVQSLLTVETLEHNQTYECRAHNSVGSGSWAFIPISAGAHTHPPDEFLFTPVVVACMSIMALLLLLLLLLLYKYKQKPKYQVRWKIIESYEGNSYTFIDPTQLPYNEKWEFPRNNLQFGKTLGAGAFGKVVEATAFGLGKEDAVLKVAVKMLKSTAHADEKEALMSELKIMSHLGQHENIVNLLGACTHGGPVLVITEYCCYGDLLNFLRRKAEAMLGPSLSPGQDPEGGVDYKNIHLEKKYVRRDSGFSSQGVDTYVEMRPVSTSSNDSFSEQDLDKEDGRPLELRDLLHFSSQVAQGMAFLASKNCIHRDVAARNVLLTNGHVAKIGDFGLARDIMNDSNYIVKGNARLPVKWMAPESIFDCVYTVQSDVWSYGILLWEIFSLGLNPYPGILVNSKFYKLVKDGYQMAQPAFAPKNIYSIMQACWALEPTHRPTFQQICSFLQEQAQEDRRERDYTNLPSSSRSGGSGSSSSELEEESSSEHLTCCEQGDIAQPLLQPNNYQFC

Block 1
Target: Sal-like protein 4, full length isoform A (SALL4, Homo sapiens, UniProt Q9UJQ4, residues 1-1053)
Sequence of UniProt Q9UJQ4 (whole entry, looked up): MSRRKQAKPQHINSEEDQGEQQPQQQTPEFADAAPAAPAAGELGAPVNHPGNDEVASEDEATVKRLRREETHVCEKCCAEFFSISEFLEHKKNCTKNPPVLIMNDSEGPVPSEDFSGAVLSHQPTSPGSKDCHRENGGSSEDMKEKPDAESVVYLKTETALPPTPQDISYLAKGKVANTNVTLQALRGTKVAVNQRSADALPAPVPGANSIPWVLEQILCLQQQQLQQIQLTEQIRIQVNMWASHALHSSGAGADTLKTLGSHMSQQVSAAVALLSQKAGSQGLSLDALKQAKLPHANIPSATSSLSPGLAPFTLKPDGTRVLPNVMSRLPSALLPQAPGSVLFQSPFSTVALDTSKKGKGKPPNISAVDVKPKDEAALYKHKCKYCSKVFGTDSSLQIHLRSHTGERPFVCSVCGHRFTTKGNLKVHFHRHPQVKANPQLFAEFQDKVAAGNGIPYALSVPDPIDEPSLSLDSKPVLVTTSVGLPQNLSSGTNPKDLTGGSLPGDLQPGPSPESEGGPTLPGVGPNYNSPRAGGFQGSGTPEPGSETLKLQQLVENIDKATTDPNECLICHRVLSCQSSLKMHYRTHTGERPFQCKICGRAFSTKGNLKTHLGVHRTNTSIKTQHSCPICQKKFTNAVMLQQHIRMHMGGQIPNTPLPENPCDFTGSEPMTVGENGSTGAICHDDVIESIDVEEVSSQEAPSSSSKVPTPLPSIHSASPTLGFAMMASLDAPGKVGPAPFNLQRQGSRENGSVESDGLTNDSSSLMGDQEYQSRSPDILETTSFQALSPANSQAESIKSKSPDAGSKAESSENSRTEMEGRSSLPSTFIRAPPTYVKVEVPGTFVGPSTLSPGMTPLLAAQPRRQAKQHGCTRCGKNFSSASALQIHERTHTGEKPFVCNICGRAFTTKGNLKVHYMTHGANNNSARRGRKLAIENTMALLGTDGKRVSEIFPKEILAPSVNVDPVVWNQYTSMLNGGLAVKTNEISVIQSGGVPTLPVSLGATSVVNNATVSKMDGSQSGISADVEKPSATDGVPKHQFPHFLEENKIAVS
Method: universal PBM
Molecule type: double-stranded DNA, one strand shown
Sample: in vitro
Tested at: 600 nM
Notes: 8-mer, flanks averaged, mean of replicates
Direction: higher = stronger binding
| Strand | E-score |
| --- | --- |
| CGATCCCA | -0.188 |
| CCGTGAGC | -0.361 |
| AAAACCAA | 0.148 |
| GCCCCCCC | -0.397 |
| ATTAGAAA | 0.239 |
| AGCACCCG | -0.322 |
| CAACCGCC | -0.288 |
| CAATTTCC | 0.0315 |

Block 2
Target: Fragile X messenger ribonucleoprotein 1, C-terminal low-complexity region (Fmr1, Mus musculus, UniProt P35922)
Method: RNA Bind-n-Seq
Molecule type: RNA
Sample: in vitro
Tested at: 200 nM
Notes: whole 134-nt RNA, ends assumed
With: 150 mM LiCl
Baseline: input library
Direction: higher = stronger binding
Each molecule: 7-deaza-guanosine replaces G
Constant ends, left off below: GGGAGUUCUACAGUCCGACGAUC … UGGAAUUCUCGGGUGUCAAGG
| Strand | log2 enrichment |
| --- | --- |
| AAGUCCUGUGCUACACAUCGUAUGUACCGAAUCGGAAAAAGGUUUUUUUGGAAAGGAAAGUAUUAUGUUACGCCGUUCGGAUCUGCACUU | -3.32 |
| UACUAUCAAACAAUCGGAAACCACGCGUCCUACUACAAAGAUGCUCUGCGGUUUUUGGGCUGUGUUGACAUCAAGGAUCUACCAGGUAAC | -1.78 |
| CAAGUCCUGUGCUACACAUCGUAUGUACCGAAUCGGGAAAAAGGGAGGGAAAGGGAAAGUAUUAUGUUACGCCGUUCGGAUCUGCACUUC | -0.538 |
| UCCUGUGCUACACAUCGUAUGUACCGAAUCGGGAAAAAGGGUUUUUUUGGGUUUUUGGGAAAGUAUUAUGUUACGCCGUUCGGAUCUGCA | -2.4 |
| CAAGUCCUGUGCUACACAUCGUAUGUACCGAAUCGGAAAGGGGAAAGGGGAAAGGGAAAGUAUUAUGUUACGCCGUUCGGAUCUGCACUU | -0.474 |
| AAGUCCUGUGCUACACAUCGUAUGUACCGAAUCGGAAAGGUUUUUGGUUUUUUUGGAAAGUAUUAUGUUACGCCGUUCGGAUCUGCACUU | -2.52 |
| ACCAUGCAGGUGGGCAUCUUUGGGAAGUGGGGCAAGGGGGGGAUAGGGAGGGGGGUAACACUAUGGGAACAGGUGGUCCCAGGUCGUUUC | 1.66 |
| UGUCUGCGGACCUGGUUUCAGCGCUGGUGGGACUGCAGCCGGAGGUCAGCCCAGCAGAGACUGCAGCUGGAGAGGGCAGUGCAACACCAC | -0.938 |

Single results of other studies
| Molecule | target | test | test system | setting | how to read | measurement | value |
| --- | --- | --- | --- | --- | --- | --- | --- |
| C[C@@H](N)[C@H]1CC[C@H](C(=O)Nc2ccncc2)CC1 | CSF1R (Homo sapiens, UniProt P07333) | enzyme activity, inhibitor | – | 0.5 µM | baseline: control | remaining activity | 97% |
| AAAAAAAA (biotin) | Apoptotic chromatin condensation inducer in the nucleus, SAP domain (ACIN1, Homo sapiens, UniProt Q9UKV3, residues 50-130) | protein domain microarray | RNA, in vitro | not given, poly(A) 8-mer RNA, whole probe, immobilized GST-fusion domains, most near background | baseline: GST loading signal, higher = stronger binding | signal ratio | 0.0392 |

For quick reference, copied from above (single results of other studies):
| Molecule | target | test | test system | setting | how to read | measurement | value |
| --- | --- | --- | --- | --- | --- | --- | --- |
| C[C@@H](N)[C@H]1CC[C@H](C(=O)Nc2ccncc2)CC1 | CSF1R (Homo sapiens, UniProt P07333) | enzyme activity, inhibitor | – | 0.5 µM | baseline: control | remaining activity | 97% |
